{"data": "Experimental data pooled from the literature", "note": "Parts stem from different laboratories: compare values within a part only."}
{"data": "Block 1", "target": "Histone acetyltransferase KAT6A, winged helix 2, GST fusion (KAT6A, Homo sapiens, UniProt Q92794, residues 85-181)", "technique": "protein binding microarray", "molecule type": "double-stranded DNA, one strand shown", "medium": "in vitro", "tested at": "not given", "setting": "8-mer, flanks averaged, mean of 2 arrays, mostly near background", "baseline": "not given", "reading": "higher = stronger binding", "Residues (chain)": "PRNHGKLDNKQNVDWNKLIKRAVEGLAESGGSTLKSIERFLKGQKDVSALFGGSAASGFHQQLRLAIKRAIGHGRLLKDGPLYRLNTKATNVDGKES"}
{"Sequence": "AACATCGC", "E-score": -0.0297}
{"Sequence": "CCACGTCC", "E-score": -0.126}
{"Sequence": "GGTCCACC", "E-score": 0.0597}
{"Sequence": "TCCGCTCA", "E-score": -0.0466}
{"Sequence": "GATTCGGC", "E-score": 0.129}
{"Sequence": "GGGTGTCA", "E-score": 0.0117}
{"Sequence": "AGTGACAT", "E-score": 0.0154}
{"Sequence": "CTCCAACA", "E-score": 0.117}
{"data": "Block 2", "target": "Sal-like protein 4, full length isoform B (SALL4, Homo sapiens, UniProt Q9UJQ4-2, residues 1-616)", "technique": "universal PBM", "molecule type": "double-stranded DNA, one strand shown", "medium": "in vitro", "tested at": "not given", "setting": "8-mer, flanks averaged, mean of replicates", "reading": "higher = stronger binding"}
{"Sequence": "CACCTGGG", "E-score": -0.238}
{"Sequence": "AGATGACT", "E-score": 0.0143}
{"Sequence": "GCGGCATA", "E-score": 0.00896}
{"Sequence": "GGCAATAA", "E-score": 0.217}
{"Sequence": "ACGATCCG", "E-score": -0.172}
{"Sequence": "GCGGTTTA", "E-score": -0.0871}
{"Sequence": "CGTACCGC", "E-score": -0.184}
{"Sequence": "CACTGACG", "E-score": -0.226}
{"data": "Block 3", "cell line": "HEK-293T", "observed": "pseudovirus infection", "technique": "FDA-approved drug library screen", "organism": "VSV pseudotyped with SARS-CoV-2 spike", "tested at": "10 µM", "time": "16 h", "baseline": "vehicle-treated"}
{"Compound": "CCCc1nn(C)c2c(=O)[nH]c(-c3cc(S(=O)(=O)N4CCN(C)CC4)ccc3OCC)nc12", "GFP-positive cells [%]": 96.5}
{"Compound": "CO[C@H]1/C=C/O[C@@]2(C)Oc3c(C)c(O)c4c(O)c(c(/C=N/N5CCN(C)CC5)c(O)c4c3C2=O)NC(=O)/C(C)=C\\C=C\\[C@H](C)[C@H](O)[C@@H](C)[C@@H](O)[C@@H](C)[C@H](OC(C)=O)[C@@H]1C", "GFP-positive cells [%]": 87.6}
{"Compound": "CCN(Cc1ccncc1)C(=O)C(CO)c1ccccc1 (stereo not drawn)", "GFP-positive cells [%]": 85.1}
{"Compound": "Nc1[nH]c(=O)ncc1F", "GFP-positive cells [%]": 92.5}
{"data": "Block 4", "target": "Replicase polyprotein 1ab, polymerase (rep, Severe acute respiratory syndrome coronavirus 2, UniProt P0DTD1)", "observed": "enzyme activity", "mode": "inhibitor", "tested at": "20 µM"}
{"SMILES": "C[C@@H]1CC[C@H]2[C@@H](C)C(=O)O[C@@H]3O[C@@]4(C)CC[C@@H]1[C@]32OO4", "inhibition [%]": 1.78}
{"SMILES": "OC[C@@H](O)[C@@H](O)CO", "inhibition [%]": -7.7}
{"SMILES": "O=C(Nc1ccc(-c2ccnc(Nc3ccc(N4CCOCC4)cc3)n2)cc1)C1CCCN1 (stereo not drawn)", "inhibition [%]": 1.47}
{"SMILES": "Cc1cc(Nc2nc(N[C@@H](C)c3ncc(F)cn3)ncc2Cl)[nH]n1", "inhibition [%]": -3.29}
{"SMILES": "CCCC(=O)N1CCCN(c2nc(N)c3cc(OC)c(OC)cc3n2)CC1", "inhibition [%]": 5.67}
{"SMILES": "C#C[C@]1(OC(=O)CCCCCC)CC[C@H]2[C@@H]3CCC4=CC(=O)CC[C@@H]4[C@H]3CC[C@@]21C", "inhibition [%]": -8.62}
{"SMILES": "C[C@]12CCC(=O)C=C1CC[C@@H]1[C@@H]2CC[C@@]2(C)[C@H]1CC[C@]2(C)O", "inhibition [%]": 0.77}
{"SMILES": "CN(C)c1cccc(-c2c3c(=O)n(-c4ccccc4Cl)[nH]c3cc(=O)n2C)c1", "inhibition [%]": -2.12}
{"SMILES": "Nc1ncnc2c1ncn2[C@@H]1O[C@H](COP(=O)(O)OP(=O)(O)OP(=O)(O)OP(=O)(O)OC[C@H]2O[C@@H](n3cnc4c(N)ncnc43)[C@H](O)[C@@H]2O)[C@@H](O)[C@H]1O", "inhibition [%]": -8.03}
{"SMILES": "CC(C(=O)O)c1ccc(N2Cc3ccccc3C2=O)cc1 (stereo not drawn)", "inhibition [%]": 20.3}
{"SMILES": "O=C(/C=C/c1ccccc1)NC(NC(=S)Nc1ccc(Cl)cc1)C(Cl)(Cl)Cl (stereo not drawn)", "inhibition [%]": 0.99}
{"SMILES": "Cc1ccc(OCCSc2ncccn2)c(Br)c1", "inhibition [%]": 4.21}
{"SMILES": "CCOc1ccc(-c2nc(-c3cccc4c3CCC4NCCO)no2)cc1OCC (stereo not drawn)", "inhibition [%]": 2.16}
{"SMILES": "O=C(O)C[C@H](O)C[C@H](O)/C=C/c1c(C2CC2)nc2ccccc2c1-c1ccc(F)cc1", "inhibition [%]": -1.99}
{"SMILES": "Cn1c(=O)c2c(ncn2CCO)n(C)c1=O", "inhibition [%]": -1.7}
{"SMILES": "C[C@@H](c1ncncc1F)[C@](O)(Cn1cncn1)c1ccc(F)cc1F", "inhibition [%]": -4.97}
{"SMILES": "Oc1ccc2ccccc2c1Cc1c(O)ccc2ccccc12", "inhibition [%]": -0.66}
{"SMILES": "CCOc1ccc(C(=O)OCCN(CC)CC)cc1", "inhibition [%]": -4.45}
{"SMILES": "CCC(=O)NC1CCc2cccc(OC)c2C1 (stereo not drawn)", "inhibition [%]": -0.05}
{"note": "Repeated from above (block 3):"}
{"Compound": "CCCc1nn(C)c2c(=O)[nH]c(-c3cc(S(=O)(=O)N4CCN(C)CC4)ccc3OCC)nc12", "GFP-positive cells [%]": 96.5}
{"Compound": "CO[C@H]1/C=C/O[C@@]2(C)Oc3c(C)c(O)c4c(O)c(c(/C=N/N5CCN(C)CC5)c(O)c4c3C2=O)NC(=O)/C(C)=C\\C=C\\[C@H](C)[C@H](O)[C@@H](C)[C@@H](O)[C@@H](C)[C@H](OC(C)=O)[C@@H]1C", "GFP-positive cells [%]": 87.6}
{"Compound": "CCN(Cc1ccncc1)C(=O)C(CO)c1ccccc1 (stereo not drawn)", "GFP-positive cells [%]": 85.1}
{"Compound": "Nc1[nH]c(=O)ncc1F", "GFP-positive cells [%]": 92.5}
